Assay results gathered from unrelated publications.
Each line is one published result; not all experiments were run side by side. Numbers after ± are the reported error.
Organism: human cytomegalovirus

`COc1cc(C2c3cc4c(cc3C(O)C3COC(=O)C23)OCO4)cc(OC)c1O` (stereo not shown) gave an EC50 of 3.4 µM (viral IE2 expression; MRC-5, AD169 IE2-YFP; 18 h post infection, 1 h pretreatment).
`NC(=O)NO` has an EC50 of 131 ± 18 µM (viral spread, GFP reporter; ARPE-19, BADrUL131-Y4 (AD169, GFP); 14 d).
`Nc1ccn(C[C@@H](CO)OCP(=O)(O)OCCOCCOCCOCCOCCOCCO)c(=O)n1` gave an EC50 of 0.6 to 0.95 µM (viral replication; HEL, AD-169).
`O=c1c(-c2ccc(O)cc2)coc2cc(O)ccc12` gave an IC50 of 7.2 µM (viral replication, titre reduction; HEL fibroblasts, Towne).
The EC50 of `O=Cc1cc(Cn2cc(F)c(=O)[nH]c2=O)ccc1O` is reported as over 100 µM (cytopathic effect; HEL fibroblasts, Davis).
The EC50 of `O=C(NO)c1ccc(O)c(O)c1` is reported as 82 ± 32 µM (viral spread, GFP reporter; MRC-5, BADrUL131-Y4 (AD169, GFP); 14 d).
With `Cc1cn(Cc2ccc(O)c(C=O)c2)c(=O)[nH]c1=O` the EC50 was over 20 µM (cytopathic effect; HEL fibroblasts, AD-169).
`O=c1c(O)c(-c2ccccc2)oc2cc(O)cc(O)c12` gave an IC50 of over 40 µM (viral replication, titre reduction; HEL fibroblasts, Towne).
For `Cc1nn(Cc2ccc(O)c(C=O)c2)c(=O)[nH]c1=O`, the EC50 was 63.1 µM (cytopathic effect; HEL fibroblasts, AD-169).
For `O=c1c(-c2ccc(O)cc2)coc2cc(O)cc(O)c12`, the IC50 was 3.2 ± 0.1 µM (viral replication, titre reduction; HEL fibroblasts, Towne).

A few entries again:
`O=c1c(O)c(-c2ccccc2)oc2cc(O)cc(O)c12` gave an IC50 of over 40 µM (viral replication, titre reduction; HEL fibroblasts, Towne).
